Measurements gathered from unrelated publications.
A part holds a random share of what one study measured.

Block 1 — technique: protein binding microarray; form: double-stranded DNA, one strand shown; sample: in vitro; tested at: not given; baseline: not given; direction: higher = stronger binding
Target: Histone acetyltransferase KAT6A, winged helix 2, GST fusion (KAT6A, Homo sapiens, UniProt Q92794, residues 85-181)
Setting: 8-mer, flanks averaged, mean of 2 arrays, mostly near background
Target sequence (chain): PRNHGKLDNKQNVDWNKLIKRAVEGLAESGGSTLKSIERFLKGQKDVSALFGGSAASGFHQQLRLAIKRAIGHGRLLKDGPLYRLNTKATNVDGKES
With `AAGGCTCA` the E-score was -0.0274.
`GTTCCCTA` gave an E-score of -0.0695.
The E-score of `CGTACGCA` is reported as 0.0181.
The E-score of `AAGGGTCA` is reported as -0.0965.
With `ACAGCCAC` the E-score was 0.178.
The E-score of `GGAACAAA` is reported as 0.0982.

Block 2 — technique: universal PBM; form: double-stranded DNA, one strand shown; sample: in vitro; tested at: 600 nM; direction: higher = stronger binding
Target: Sal-like protein 4, full length isoform A (SALL4, Homo sapiens, UniProt Q9UJQ4, residues 1-1053)
Chain of UniProt Q9UJQ4 (whole entry, looked up): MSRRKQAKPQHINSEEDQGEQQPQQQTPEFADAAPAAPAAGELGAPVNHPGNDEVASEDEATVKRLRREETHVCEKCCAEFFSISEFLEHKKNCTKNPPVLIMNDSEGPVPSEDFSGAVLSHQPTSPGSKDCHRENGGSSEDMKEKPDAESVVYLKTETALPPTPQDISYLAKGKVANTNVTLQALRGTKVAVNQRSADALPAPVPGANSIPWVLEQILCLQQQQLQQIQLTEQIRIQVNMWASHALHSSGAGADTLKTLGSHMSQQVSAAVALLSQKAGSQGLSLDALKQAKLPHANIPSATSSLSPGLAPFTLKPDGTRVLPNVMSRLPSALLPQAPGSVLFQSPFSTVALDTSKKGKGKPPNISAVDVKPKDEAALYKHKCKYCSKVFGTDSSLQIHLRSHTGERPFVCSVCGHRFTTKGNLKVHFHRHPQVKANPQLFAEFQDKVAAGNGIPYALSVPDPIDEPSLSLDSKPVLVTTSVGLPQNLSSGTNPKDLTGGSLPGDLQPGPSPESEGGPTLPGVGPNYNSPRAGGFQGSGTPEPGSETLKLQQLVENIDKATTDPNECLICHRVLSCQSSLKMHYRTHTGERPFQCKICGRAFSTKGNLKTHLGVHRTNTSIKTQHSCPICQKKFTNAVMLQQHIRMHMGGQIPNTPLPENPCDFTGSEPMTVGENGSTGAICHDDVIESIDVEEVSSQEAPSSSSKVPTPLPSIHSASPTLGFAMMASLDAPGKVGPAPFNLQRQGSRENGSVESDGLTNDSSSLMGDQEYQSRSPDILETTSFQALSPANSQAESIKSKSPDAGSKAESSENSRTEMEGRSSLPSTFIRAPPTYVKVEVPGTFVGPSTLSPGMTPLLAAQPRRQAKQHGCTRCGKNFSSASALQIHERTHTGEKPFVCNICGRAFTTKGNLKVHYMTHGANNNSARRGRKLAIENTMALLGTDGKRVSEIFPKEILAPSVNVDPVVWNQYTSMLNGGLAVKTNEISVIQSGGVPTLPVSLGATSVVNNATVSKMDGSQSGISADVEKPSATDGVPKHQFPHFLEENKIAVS
Setting: 8-mer, flanks averaged, mean of replicates
The E-score of `AATCCCGC` is reported as -0.122.
The E-score of `GCATTGGA` is reported as 0.12.
`GAGATTCC` gave an E-score of -0.183.
The E-score of `CTGAAGGC` is reported as -0.185.
`AATGATGG` gave an E-score of 0.142.

Block 3 — technique: protein-binding microarray; form: double-stranded DNA, one strand shown; sample: in vitro; tested at: 250 nM; setting: 60-bp whole probe; with: salmon DNA 0.4 mg/ml; baseline: random background probes; direction: higher = stronger binding; constant ends, left off below: GCCTAGCAC … GTCTTGATTCGCTTGACGCTGCTG
Target: Interferon regulatory factor 7, full length, phosphomimetic (IRF7, Homo sapiens, UniProt Q92985, residues 1-503, S101K/S471D/S472D/S475D/S476D/S477D/S483D/S484D/S487D)
Residues (chain): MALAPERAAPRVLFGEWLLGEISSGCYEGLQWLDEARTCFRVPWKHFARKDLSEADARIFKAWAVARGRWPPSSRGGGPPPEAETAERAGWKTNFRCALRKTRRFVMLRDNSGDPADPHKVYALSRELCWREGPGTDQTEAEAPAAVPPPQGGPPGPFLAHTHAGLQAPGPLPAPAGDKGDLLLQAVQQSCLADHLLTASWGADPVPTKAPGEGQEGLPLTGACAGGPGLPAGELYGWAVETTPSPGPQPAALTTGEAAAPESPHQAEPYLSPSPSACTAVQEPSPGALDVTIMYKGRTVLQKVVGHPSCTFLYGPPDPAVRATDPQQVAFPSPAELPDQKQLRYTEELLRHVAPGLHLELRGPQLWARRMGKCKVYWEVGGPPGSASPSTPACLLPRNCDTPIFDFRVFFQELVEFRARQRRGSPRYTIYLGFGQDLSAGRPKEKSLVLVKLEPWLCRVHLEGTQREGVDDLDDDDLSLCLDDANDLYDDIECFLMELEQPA
`GACGGACTGCTTTTACTGACGTGCTAG` gave a log fluorescence of -0.363 z-score.
`GACGGTGCCGGTTTCGGGACGTGCTAG` gave a log fluorescence of 2.17 z-score.
For `TCATTTATGCACTCTTTAACTGTGCTA`, the log fluorescence was 0.939 z-score.
The log fluorescence of `TCAAACTTGTATTTGTCACTGTGCTAG` is reported as 0.174 z-score.
With `GTGTACATCTCTCTTAAATAGTGCTAG` the log fluorescence was 0.225 z-score.

Single results of other studies
The fold induction of `PhoQ, residues 284 288 289 292 302 303 DDMDFR` is reported as 0.974 (PhoP, residues 12 14 15 18 19 NHFIF (Escherichia coli, UniProt P23836); Sort-seq, item: YFP reporter; E. coli; PhoQ-PhoP variant library, with: 10 µM Mg2+; baseline: high Mg2+ state, higher = stronger signaling).

A few entries again (block 1):
`GTTCCCTA` gave an E-score of -0.0695.
